Measured values of several laboratories.
A part holds a random share of what one study measured. Positions count from the first letter of the parent shown.

Set 1 — technique: protein binding microarray; form: double-stranded DNA, one strand shown; medium: in vitro; tested at: not given; reference: not given; reading: higher = stronger binding
Target: Histone acetyltransferase KAT6A, winged helix 1, GST fusion (KAT6A, Homo sapiens, UniProt Q92794, residues 1-85)
Setting: 8-mer, flanks averaged, mean of 2 arrays, mostly near background
Target sequence (chain): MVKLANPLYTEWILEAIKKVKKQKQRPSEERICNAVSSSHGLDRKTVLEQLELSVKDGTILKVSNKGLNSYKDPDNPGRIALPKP
Strand	E-score
ACGGGTGA	0.282
AGCTAAGC	0.00672
AAAACGTA	-0.149
ACCCCTAC	-0.203
AACGTCTC	-0.162
ACATTGAT	0.00499
CTAAATAC	-0.0801
AACAATGG	-0.195
GCAGAGAA	-0.0966
ATAGTGCA	-0.101
CATACCTC	-0.229
ACCCAGCA	-0.0243
AACAACGC	0.0681
AGCTACAT	-0.144
CTCCACAC	-0.0885
AGTCGGCG	0.292
ATTCAAAA	-0.0601
AGGTACTG	-0.143
CCCTGAAG	0.0076
CTCGCGGC	0.448
ACGATGGA	0.0416
CCTAAATC	-0.173
GTCGGATA	0.115
ATATCTTC	-0.188
CTGGGGAC	-0.295

Set 2 — technique: RNA Bind-n-Seq; form: RNA; medium: in vitro; tested at: 365 nM; reference: no-protein control; reading: higher = stronger binding
Target: RNA binding protein fox-1 homolog 2, RRM domain, GST-SBP tag (RBFOX2, Homo sapiens, UniProt O43251-10, residues 100-194)
Setting: natural RNA segment, single round, ends assumed
Construct (chain): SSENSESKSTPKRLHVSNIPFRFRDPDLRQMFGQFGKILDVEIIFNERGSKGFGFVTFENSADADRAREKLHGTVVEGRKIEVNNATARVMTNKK
Strand	RBNS enrichment (R)
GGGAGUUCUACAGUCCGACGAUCCUUUAGACUACACAGGCAAUAAUCAAGUCUGCUGUUUUGGCCUUUCGUAGUAGAAGUGGUUGUAGUGUUUAGAUAUCUGUUUGGUCUUGCUUCUUGUAUUGCAUUUUUUUUGGAAUUCUCGGGUGCCAA	2.62
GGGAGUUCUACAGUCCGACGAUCAGGGGUCCAAACAGAAAAUAACCGGAGAAGACAAGGAGGUCAAAGGAUCAGGGAACUAAGCAUUAUGUGAAUUCACCAGCAAGAUGUACAGAACGCCUGUGUUUACAUUGUGGAAUUCUCGGGUGCCAA	0.807
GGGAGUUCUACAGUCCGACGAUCGUUGGUUUCCCGAAUAGUGUGCAUUCCAGCUGGAUAGUCUUAGGCAUGAUGAUAAUAAAAUCAAAAGCUGGAAUACAAUUAAAGCAUCAGAUUUACACUGGCACUGUGCCUGGAAUUCUCGGGUGCCAA	10.3
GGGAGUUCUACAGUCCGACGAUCUCACAUGUGAAUUUUCUCUACACAUAGCAAACAUAACUUCAUUUGGCUCUAAGUGUCUGAGGAAUGGAGCUCACAAGAGAGCAAACAACAAAGCUACAGUUAUCUGUCUGUGGAAUUCUCGGGUGCCAA	0.312
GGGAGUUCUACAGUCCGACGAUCAAAUUGAAAAAGACAUGUAGAAUUUGUUGUCUUCUGCUAAGCACGAAAAGUUAAGAUAUCUGCUUACAUUGAUUUUGUAGACACAUUAAGUCAAGAUUUGGAAUUUAAGUUGGAAUUCUCGGGUGCCAA	1.3
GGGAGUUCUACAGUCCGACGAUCUCUCCUUCCCACUGUCCUUUCUCCAGGCCCUCAGAUGGCACAUUAGGGUGGGCGUGCUGCGGGUGGGUAUCCCACCUCCAGCCCACAGUGCUCAGUUGUACUUUUUAUUAUGGAAUUCUCGGGUGCCAA	0.372
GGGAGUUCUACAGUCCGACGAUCACUUGCCUUGAAGAAGAAAGGCGCUGACACGCUUAACGCAAACAGAAGGUCCACAAAUAGCAGUUCACAUCACAGCCCUGCAGUCCCCUUUUGUAGCUGUGUUUAAGGUCUGGAAUUCUCGGGUGCCAA	0.347
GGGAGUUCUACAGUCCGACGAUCGUUUAGCCAGCACACCCAAUGGUUUCACUAACUAGCCCAGUUGACCUUUUUGAAGUUUGAGCCUUGAGCACCUUCAACAAAAUUGAGCACUCUGAUUAGGAUAUCCACUUUGGAAUUCUCGGGUGCCAA	0.667

Set 3 — technique: protein-binding microarray; form: double-stranded DNA, one strand shown; medium: in vitro; tested at: 250 nM; setting: 60-bp whole probe; added: salmon DNA 0.4 mg/ml; reference: random background probes; reading: higher = stronger binding; constant ends, left off below: GCCTAGCAC … GTCTTGATTCGCTTGACGCTGCTG
Target: Interferon regulatory factor 7, full length, phosphomimetic (IRF7, Homo sapiens, UniProt Q92985, residues 1-503, S101K/S471D/S472D/S475D/S476D/S477D/S483D/S484D/S487D)
Residues (chain): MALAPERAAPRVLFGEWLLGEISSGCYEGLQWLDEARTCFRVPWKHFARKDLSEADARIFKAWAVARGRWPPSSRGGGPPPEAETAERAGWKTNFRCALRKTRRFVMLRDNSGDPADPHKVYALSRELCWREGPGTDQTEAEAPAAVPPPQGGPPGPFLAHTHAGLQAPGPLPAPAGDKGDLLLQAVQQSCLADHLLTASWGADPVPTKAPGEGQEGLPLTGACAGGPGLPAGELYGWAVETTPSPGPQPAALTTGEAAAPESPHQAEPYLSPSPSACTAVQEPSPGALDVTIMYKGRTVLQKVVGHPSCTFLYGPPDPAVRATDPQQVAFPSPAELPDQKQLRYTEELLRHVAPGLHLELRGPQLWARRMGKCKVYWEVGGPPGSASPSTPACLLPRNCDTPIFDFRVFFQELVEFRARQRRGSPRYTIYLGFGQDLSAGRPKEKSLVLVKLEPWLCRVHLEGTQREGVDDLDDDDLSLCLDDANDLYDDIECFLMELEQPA
Strand	log fluorescence
TCAACACTCTTCTTTTGCACTGTGCTA	0.269 z-score
TCAGTAATGCTTCTGTAACTGTGCTAG	-0.204 z-score
TTAGATTACAGACTGGATTAGTGCTAG	0.261 z-score
GAGCCCGGGGTGTAAGCAACGTGCTAG	-0.983 z-score
GACGGTTTCAGTCTCGGGACGTGCTAG	1.77 z-score
AGCACTCCAGAGGCAGAGGCGTGCTAG	-0.999 z-score
GACGATTTCAGTATCGAGATGTGCTAG	0.416 z-score
ATTTCTTTCTAATTCAAAGTGTGCTAG	2.25 z-score
TCATTTTTCTCACCACATACTGTGCTA	1.15 z-score
TTAGATATCAGTTTCGCTTAGTGCTAG	6.52 z-score
GACGGTATCCTTATCCTGTCGTGCTAG	0.438 z-score
GACGGTATCGGACTGGGGTCGTGCTAG	-0.192 z-score
GACAATATCGGGTATCGAGACGTGCTA	0.0514 z-score
GACGAACTGAGTCTCGAGTCGTGCTAG	1.57 z-score
TTAGGTATCCGTCTCGGTTAGTGCTAG	0.478 z-score
TTAGGTTTTCTTTCCCTTTAGTGCTAG	2.26 z-score
GACGGTATCCCTATCCTGACGTGCTAG	-0.322 z-score
GGCGGTTTCGACACTGGGGACGTGCTA	3.21 z-score
GACGATTTCAGTATCTAGACGTGCTAG	0.216 z-score

Set 4 — technique: DHFR PCA, deep sequencing; medium: yeast; added: (+)-ABA 58 µM; reference: wild-type fitted maximum; reading: higher = stronger binding
Target: ABI1, truncated, D143A, DHFR fusion (Arabidopsis thaliana)
Setting: methotrexate growth selection, single substitutions
Parent: PYL1, truncated, DHFR fusion (Arabidopsis thaliana); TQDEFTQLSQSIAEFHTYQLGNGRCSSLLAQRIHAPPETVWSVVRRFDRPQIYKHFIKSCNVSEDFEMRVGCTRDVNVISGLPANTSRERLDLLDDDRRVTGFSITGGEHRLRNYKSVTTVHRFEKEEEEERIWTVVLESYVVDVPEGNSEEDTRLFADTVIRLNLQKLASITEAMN; partner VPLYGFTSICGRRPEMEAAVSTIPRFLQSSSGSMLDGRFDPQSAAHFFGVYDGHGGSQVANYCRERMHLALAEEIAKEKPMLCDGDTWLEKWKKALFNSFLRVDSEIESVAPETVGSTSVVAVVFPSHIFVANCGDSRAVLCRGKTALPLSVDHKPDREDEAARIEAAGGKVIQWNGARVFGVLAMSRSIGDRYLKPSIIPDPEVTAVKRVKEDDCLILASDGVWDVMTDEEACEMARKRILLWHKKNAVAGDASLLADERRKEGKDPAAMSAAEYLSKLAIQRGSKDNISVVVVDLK
Variant	relative binding score [%]
N85P	40.2
R69F	69.9
L93P	13
R45C	31.4
T160R	61.6
V100I	92.8
E64L	76.5
S27H	80.4
Q51I	15.5
L166C	0.502
T119W	-6.58
D3R	83
V78R	7.34
L20K	89.7
I52R	82
E14F	41.3
A13G	85.6
R99F	104
G102S	87.2
T120V	-0.976

For quick reference, copied from above (set 1):
Strand	E-score
AAAACGTA	-0.149
ACCCCTAC	-0.203
AACGTCTC	-0.162
ACATTGAT	0.00499
CTAAATAC	-0.0801
AACAATGG	-0.195
GCAGAGAA	-0.0966
ATAGTGCA	-0.101
